Results from different studies.
Several values in a cell are separate wells, animals, samples, runs or records. ± gives the spread as reported.
CASP7: Caspase-7 (CASP7, Homo sapiens, UniProt P55210)
Sequence of UniProt P55210 (whole entry, looked up): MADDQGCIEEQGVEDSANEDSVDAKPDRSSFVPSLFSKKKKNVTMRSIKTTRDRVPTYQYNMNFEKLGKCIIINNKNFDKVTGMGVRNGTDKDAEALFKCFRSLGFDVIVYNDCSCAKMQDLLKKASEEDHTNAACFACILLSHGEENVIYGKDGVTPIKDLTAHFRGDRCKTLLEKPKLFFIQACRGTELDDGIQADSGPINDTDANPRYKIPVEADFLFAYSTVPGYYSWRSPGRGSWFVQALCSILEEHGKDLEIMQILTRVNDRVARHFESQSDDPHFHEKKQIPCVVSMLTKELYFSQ
T1: G-quadruplex DNA, G-quadruplex (Homo sapiens); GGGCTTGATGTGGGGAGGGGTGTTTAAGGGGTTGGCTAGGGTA
Sequence of UniProt Q13148 (whole entry, looked up): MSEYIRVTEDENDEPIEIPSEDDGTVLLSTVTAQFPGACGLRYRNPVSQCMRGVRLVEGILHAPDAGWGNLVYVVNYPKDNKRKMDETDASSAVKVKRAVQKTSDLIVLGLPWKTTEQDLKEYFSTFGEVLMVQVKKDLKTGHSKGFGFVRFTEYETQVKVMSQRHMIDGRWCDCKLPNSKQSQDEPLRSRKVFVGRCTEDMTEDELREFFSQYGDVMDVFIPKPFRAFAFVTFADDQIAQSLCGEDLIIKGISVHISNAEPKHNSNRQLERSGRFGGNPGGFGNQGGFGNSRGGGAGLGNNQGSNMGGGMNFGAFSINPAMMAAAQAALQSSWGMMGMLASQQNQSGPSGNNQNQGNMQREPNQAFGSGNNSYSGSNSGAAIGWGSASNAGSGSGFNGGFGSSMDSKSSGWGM
Sequence of UniProt P00921 (whole entry, looked up): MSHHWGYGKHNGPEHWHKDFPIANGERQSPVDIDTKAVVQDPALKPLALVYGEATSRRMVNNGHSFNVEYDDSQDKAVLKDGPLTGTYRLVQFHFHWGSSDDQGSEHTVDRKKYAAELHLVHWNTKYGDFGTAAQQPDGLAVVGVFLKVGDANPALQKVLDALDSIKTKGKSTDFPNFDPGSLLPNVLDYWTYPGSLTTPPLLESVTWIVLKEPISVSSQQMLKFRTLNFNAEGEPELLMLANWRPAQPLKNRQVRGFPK
Sequence of UniProt P19491 (whole entry, looked up): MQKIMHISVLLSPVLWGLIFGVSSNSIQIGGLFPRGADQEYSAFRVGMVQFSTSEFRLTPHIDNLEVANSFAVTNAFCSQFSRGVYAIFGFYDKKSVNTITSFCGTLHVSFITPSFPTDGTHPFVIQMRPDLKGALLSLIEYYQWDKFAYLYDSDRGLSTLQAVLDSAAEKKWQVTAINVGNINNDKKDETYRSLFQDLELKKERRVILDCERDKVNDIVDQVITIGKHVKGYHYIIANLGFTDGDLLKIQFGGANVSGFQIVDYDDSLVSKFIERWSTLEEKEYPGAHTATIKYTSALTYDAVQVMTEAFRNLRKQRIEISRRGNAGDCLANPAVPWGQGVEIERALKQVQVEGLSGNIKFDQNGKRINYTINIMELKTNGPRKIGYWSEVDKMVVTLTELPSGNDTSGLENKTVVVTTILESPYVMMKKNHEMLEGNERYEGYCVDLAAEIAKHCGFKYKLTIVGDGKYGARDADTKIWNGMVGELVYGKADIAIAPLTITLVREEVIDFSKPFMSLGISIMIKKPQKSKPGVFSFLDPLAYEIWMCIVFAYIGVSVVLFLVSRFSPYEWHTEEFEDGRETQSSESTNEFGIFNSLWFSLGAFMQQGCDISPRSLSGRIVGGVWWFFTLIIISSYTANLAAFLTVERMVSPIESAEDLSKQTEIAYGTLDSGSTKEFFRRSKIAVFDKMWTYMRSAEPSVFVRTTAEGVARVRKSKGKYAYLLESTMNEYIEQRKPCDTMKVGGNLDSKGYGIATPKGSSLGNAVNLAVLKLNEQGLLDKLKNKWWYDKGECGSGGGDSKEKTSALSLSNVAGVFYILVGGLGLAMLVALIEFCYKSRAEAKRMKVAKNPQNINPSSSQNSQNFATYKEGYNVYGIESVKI
Sequence of UniProt P17706 (whole entry, unmodified, looked up): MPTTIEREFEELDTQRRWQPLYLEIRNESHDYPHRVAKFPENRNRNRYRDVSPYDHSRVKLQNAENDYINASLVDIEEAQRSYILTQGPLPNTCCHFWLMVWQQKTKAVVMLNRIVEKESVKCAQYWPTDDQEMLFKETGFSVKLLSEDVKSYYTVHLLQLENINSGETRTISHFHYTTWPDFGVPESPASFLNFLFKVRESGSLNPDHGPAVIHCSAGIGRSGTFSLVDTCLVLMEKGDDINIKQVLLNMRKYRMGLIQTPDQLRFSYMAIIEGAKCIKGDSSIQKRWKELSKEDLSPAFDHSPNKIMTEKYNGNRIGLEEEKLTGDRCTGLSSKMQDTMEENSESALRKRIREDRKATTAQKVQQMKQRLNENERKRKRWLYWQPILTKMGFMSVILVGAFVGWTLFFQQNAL
Sequence of UniProt Q6UB35 (whole entry, looked up): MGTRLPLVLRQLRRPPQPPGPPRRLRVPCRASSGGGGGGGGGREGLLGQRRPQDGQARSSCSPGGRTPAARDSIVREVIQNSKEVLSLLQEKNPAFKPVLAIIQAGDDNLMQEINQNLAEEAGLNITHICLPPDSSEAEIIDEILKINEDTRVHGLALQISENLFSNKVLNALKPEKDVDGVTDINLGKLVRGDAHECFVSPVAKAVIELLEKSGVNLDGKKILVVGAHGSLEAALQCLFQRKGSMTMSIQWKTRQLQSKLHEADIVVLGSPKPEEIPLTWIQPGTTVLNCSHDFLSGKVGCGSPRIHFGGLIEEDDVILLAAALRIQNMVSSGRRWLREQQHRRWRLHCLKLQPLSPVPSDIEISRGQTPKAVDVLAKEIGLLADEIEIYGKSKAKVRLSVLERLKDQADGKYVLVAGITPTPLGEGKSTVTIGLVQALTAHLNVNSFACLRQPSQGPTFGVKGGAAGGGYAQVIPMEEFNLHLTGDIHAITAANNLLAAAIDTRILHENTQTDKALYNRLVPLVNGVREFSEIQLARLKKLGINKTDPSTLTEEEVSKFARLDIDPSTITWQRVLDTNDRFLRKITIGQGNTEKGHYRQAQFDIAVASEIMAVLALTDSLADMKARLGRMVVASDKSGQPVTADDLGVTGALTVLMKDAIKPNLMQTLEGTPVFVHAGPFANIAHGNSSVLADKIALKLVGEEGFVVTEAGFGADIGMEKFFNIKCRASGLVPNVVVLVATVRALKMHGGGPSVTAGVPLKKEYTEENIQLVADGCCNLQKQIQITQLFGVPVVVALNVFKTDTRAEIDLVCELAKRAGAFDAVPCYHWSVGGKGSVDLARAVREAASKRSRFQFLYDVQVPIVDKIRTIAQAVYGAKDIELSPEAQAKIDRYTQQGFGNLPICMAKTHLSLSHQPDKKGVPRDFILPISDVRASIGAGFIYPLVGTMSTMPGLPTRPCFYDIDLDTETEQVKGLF
Sequence of UniProt P04756 (whole entry, unmodified, looked up): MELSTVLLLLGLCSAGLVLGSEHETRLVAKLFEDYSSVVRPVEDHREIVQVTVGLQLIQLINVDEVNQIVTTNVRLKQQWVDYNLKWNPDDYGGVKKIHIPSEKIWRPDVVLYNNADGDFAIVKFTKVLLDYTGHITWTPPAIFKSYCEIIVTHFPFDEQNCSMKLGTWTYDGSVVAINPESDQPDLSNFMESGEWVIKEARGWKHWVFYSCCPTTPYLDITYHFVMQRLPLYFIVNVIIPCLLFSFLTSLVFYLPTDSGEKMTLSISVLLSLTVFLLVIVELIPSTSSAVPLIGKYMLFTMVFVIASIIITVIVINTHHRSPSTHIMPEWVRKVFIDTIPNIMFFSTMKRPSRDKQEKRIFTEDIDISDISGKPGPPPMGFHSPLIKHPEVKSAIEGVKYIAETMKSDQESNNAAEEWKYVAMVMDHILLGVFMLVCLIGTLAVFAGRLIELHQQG
Sequence of UniProt P02716 (whole entry, unmodified, looked up): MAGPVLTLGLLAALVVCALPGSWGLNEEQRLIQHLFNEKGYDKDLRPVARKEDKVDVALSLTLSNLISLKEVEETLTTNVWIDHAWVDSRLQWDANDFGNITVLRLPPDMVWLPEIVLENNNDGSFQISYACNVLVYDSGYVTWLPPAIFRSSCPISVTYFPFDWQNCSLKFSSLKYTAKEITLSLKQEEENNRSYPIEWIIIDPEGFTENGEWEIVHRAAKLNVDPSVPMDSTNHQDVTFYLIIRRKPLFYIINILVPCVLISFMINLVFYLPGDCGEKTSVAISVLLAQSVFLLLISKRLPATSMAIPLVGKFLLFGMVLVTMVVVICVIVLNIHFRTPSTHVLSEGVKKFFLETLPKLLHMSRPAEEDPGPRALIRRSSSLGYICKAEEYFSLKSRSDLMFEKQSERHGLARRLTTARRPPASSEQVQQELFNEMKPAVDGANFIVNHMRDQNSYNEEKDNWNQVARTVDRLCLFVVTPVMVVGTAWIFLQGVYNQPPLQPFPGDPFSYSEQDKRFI
Sequence of UniProt P20782 (whole entry, unmodified, looked up): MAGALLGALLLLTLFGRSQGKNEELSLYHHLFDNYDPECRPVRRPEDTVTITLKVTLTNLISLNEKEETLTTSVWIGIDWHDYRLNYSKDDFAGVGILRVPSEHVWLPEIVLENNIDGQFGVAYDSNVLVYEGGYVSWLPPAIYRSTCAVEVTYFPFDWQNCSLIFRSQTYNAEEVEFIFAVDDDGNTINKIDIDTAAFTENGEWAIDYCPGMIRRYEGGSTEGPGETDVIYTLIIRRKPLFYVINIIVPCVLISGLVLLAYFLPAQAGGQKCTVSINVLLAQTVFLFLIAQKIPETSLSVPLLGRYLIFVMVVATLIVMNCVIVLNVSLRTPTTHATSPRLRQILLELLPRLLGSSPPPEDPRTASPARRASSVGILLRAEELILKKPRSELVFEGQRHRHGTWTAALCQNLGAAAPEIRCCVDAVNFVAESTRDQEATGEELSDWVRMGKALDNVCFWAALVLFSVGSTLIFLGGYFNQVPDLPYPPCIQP

SMILES = O=C(O)Cc1cc2c(cc1C(=O)c1cccc(Cl)c1)OCO2; target = Gria2 (Rattus norvegicus, UniProt P19491); test = glutamate-evoked current, whole-cell patch clamp; test system = HEK-293T; setting = concentration not given, glutamate alone after washout, with: glutamate; quantity = current amplitude after recovery; value = 1250 ± 46 pA
SMILES = CC(C)[C@@H]1NC(=O)[C@H](Cc2ccccc2)NC(=O)CSC[C@@H](C(N)=O)NC(=O)[C@H](CCC(=O)O)NC(=O)[C@H](CO)NC(=O)[C@H](Cc2c[nH]c3cccc(Cl)c23)NC(=O)[C@H](C2CCCCC2)NC(=O)[C@H](C(C)C)NC(=O)[C@H](Cc2ccc(O)cc2)NC(=O)[C@H](CC(=O)O)NC(=O)[C@H](Cc2c[nH]c3ccccc23)NC(=O)[C@H](Cc2ccc(N)nc2)NC(=O)[C@H](Cc2c[nH]c3ccc(Cl)cc23)NC(=O)[C@H](CCC(=O)O)NC1=O; target = Interleukin-1 receptor-like 2 (IL1RL2, Homo sapiens, UniProt Q9HB29); test = SEAP reporter gene, antagonist; test system = HEK-Blue IL-36R cells; setting = 100 µM, 6 h, with: IL-36 3 ng/mL; scale = relative to: untreated; quantity = remaining activity; value = 4.1%
SMILES = CC[C@H](C)[C@H](NC(=O)[C@H](CO)NC(=O)[C@H](CO)NC(=O)[C@H](CCC(=O)O)NC(=O)[C@H](CCC(=O)O)NC(=O)[C@H](CCCCN)NC(=O)[C@H](CO)NC(=O)[C@@H](NC(=O)[C@H](CO)NC(=O)[C@H](CC(C)C)NC(=O)[C@H](Cc1ccccc1)NC(=O)[C@H](CCCNC(=N)N)NC(=O)[C@H](C)NC(=O)[C@H](Cc1ccccc1)NC(=O)[C@H](Cc1ccccc1)NC(=O)[C@@H]1CCCN1C(=O)[C@H](CC(C)C)NC(=O)[C@H](C)NC(=O)[C@H](CCCCN)NC(=O)CNC(=O)[C@H](CCC(N)=O)NC(=O)[C@H](CCC(N)=O)NC(=O)[C@H](CC(=O)O)NC(=O)[C@H](CC(N)=O)NC(=O)[C@@H]1CCCN1C(=O)[C@H](Cc1ccc(O)cc1)NC(=O)[C@H](C)NC(=O)[C@@H](N)CCSC)C(C)C)C(=O)N[C@@H](CCCCN)C(=O)N[C@@H](CO)C(=O)N1CCC[C@H]1C(=O)N[C@@H](CO)C(=O)N1CCC[C@H]1C(=O)N[C@@H](CC(=O)O)C(=O)N[C@@H](Cc1c[nH]cn1)C(=O)N[C@@H](CCC(=O)O)C(=O)N[C@H](C(=O)N[C@@H](CO)C(=O)N[C@@H]1C(=O)N[C@@H](CCCNC(=N)N)C(=O)N[C@@H](CCCCN)C(=O)N[C@@H](Cc2ccc(O)cc2)C(=O)N2CCC[C@H]2C(=O)N[C@H]2COC(=O)CC[C@@H](C(=O)N[C@@H](CCC(=O)O)C(=O)N[C@@H](Cc3c[nH]c4ccccc34)C(=O)O)NC(=O)[C@H](Cc3c[nH]c4ccccc34)NC(=O)[C@H](CC(=O)O[C@@H]1C)NC2=O)[C@@H](C)CC; target = uncharacterized protein (Microcystis aeruginosa MRC, UniProt B2G3C9); test = isothermal titration calorimetry; setting = concentration not given, pH 8.0, 25 °C; quantity = binding stoichiometry; value = 1.05 ± 0.09
SMILES = NS(=O)(=O)c1ccc(CN2C(=O)c3ccc(N4CCOCC4)cc3C2=O)cc1; target = CA2 (Bos taurus, UniProt P00921); test = binding; setting = 2 µM, pH 7.2; scale = relative to: without protein; quantity = fluorescence turn-on; value = 7.1 ± 0.8 fold
SMILES = O=C1c2sc(-c3ccc(N4CCC(CO)CC4)nc3F)nc2CCN1c1cccnc1; target = TAR DNA-binding protein 43, aggregated (TARDBP, Homo sapiens, UniProt Q13148); test = radioligand binding; test system = human, FTLD-TDP type B sarkosyl-insoluble extract; setting = 26.56 nM; quantity = specific binding; value = 1.86 nM and 1.26 nM
SMILES = CCOC(=O)C(CC)(CCCSCCOCCOCCN)NC(=O)c1ccc(C2CC2)c(Cc2ccc(F)cc2)n1 (racemic); target = CNR2 (Homo sapiens, UniProt P34972); test = radioligand binding; scale = relative to: CB1 over CB2 (human); quantity = Ki ratio; value = 11
SMILES = CC(C)c1ccc(/C=C/C(=O)c2c[nH]c3ccccc23)cc1; target = MAOA (Homo sapiens, UniProt P21397); test = enzyme activity, inhibitor; setting = 10 µM; quantity = activity vs control; value = 33.5%
SMILES = CN(C)c1ccc(C2=C/C(=C/C=C/c3sc4ccccc4[n+]3C)c3ccccc3O2)cc1; target = T1, G-quadruplex DNA, G-quadruplex (Homo sapiens); test = fluorescence turn-on; quantity = binding; value = binds
SMILES = CC(=O)Nc1ccc(-c2ccnc(NCC3CCC3)n2)cc1; target = human kinase panel; test = binding, KINOMEscan; setting = 10000 nM, %Ctrl below 35; quantity = number of kinases hit; value = 8
SMILES = CCCCCCCCCCCCC/C=C/C=O; target = MTHFD1L (Homo sapiens, UniProt Q6UB35); test = competitive isoTOP-ABPP; test system = proteome, soluble, MDA-MB-231; setting = 100 µM, with: iodoacetamide probe; scale = relative to: DMSO over compound-treated, higher = stronger cysteine blockade; quantity = isoTOP-ABPP competition ratio; value = 1
SMILES = CC(=O)N[C@@H](CC(=O)O)C(=O)N[C@@H](CO)C(=O)N[C@@H](C)C(=O)N[C@@H](CC(=O)O)C(=O)COC(=O)c1c(C)cccc1C; target = CASP7; test = enzyme activity, inhibitor; quantity = kinact/KI; value = 156000 M⁻¹ s⁻¹
SMILES = Cn1c(=O)n(C2CCC(=O)NC2=O)c2ccc(C3CCN(CC(=O)Nc4cccc(CS(=O)(=O)N5CC[C@H](Nc6cccc(-c7sc(C(=O)O)c(OCC(=O)O)c7Cl)c6)CC5(C)C)c4)CC3)cc21 (some centres unmarked); target = PTPN2 (Homo sapiens, UniProt P17706, H30A/P33A/R35A); test = degrader, bio-layer interferometry; setting = 62.5 nM; scale = higher = more binding; quantity = BLI binding response; value = 0.339 a.u.
SMILES = C[N+](C)(C)CCOC(N)=O; target = Chrnd/Chrna1/Chrne (Mus musculus, UniProt P02716+P04756+P20782, G173A/S470W); test = ligand binding, agonist, single-channel kinetics; setting = chain A; scale = relative to: wild type over mutant; quantity = affinity ratio; value = 0.8
SMILES = CC(=O)N[C@@H](CC(C)C)C(=O)N[C@@H](CCC(N)=O)C(=O)N[C@@H](CCC(=O)O)C(=O)N[C@@H](CC(=O)O)C(=O)COC(=O)c1c(C)cccc1C; target = CASP7; test = enzyme activity, inhibitor; quantity = kinact/KI; value = 400 M⁻¹ s⁻¹
